Assay results from different studies.
Protocols differ between the studies behind these lines.
Organism: Pseudomonas aeruginosa

CC[C@H]1OC(=O)[C@H](C)[C@@H](O[C@H]2C[C@@](C)(OC)[C@@H](O)[C@H](C)O2)[C@H](C)[C@@H](O[C@@H]2O[C@H](C)C[C@H](N(C)C)[C@H]2O)[C@](C)(O)C[C@@H](C)CN(C)[C@H](C)[C@@H](O)[C@]1(C)O  MIC (microbial growth, broth dilution): 1 µg/mL
CCCCCCCCCCCC[N+](C)(C)CCCCCCOc1cc(OCCCCCC[N+](C)(C)CCCCCCCCCCCC)cc(OCCCCCC[N+](C)(C)CCCCCCCCCCCC)c1.[Br-].[Br-].[Br-]  MIC (PAO1): 32 µM
CC[C@H]1OC(=O)[C@H](C)[C@@H](OC(=O)Cc2ccc(Cl)cc2)[C@H](C)[C@@H](O[C@@H]2O[C@H](C)C[C@H](N(C)C)[C@H]2O)[C@](C)(OC)C[C@@H](C)C(=O)[C@H](C)[C@@H](O)[C@]1(C)O  MIC (PAO397, five efflux pumps deleted): > 32 µg/mL
C/C(=C\c1ccc(O)cc1)C(=O)Nc1ccc(C(=O)N[C@@H](Cc2c[nH]nn2)C(=O)Nc2ccc(C(=O)Nc3ccc(C(=O)Nc4ccc(C(=O)O)c(O)c4)c(O)c3)cc2)cc1  MIC (broth microdilution; ciprofloxacin-sensitive): 8 µg/mL
CC(C)C[C@@H]1NC(=O)[C@@H](CC(C)C)NC(=O)[C@H](CCN)NC(=O)[C@@H](NC(=O)[C@H](CCN)NC(=O)[C@@H](NC(=O)CCOCCOCCOCCN=[N+]=[N-])[C@@H](C)O)CCNC(=O)[C@H]([C@@H](C)O)NC(=O)[C@H](CCN)NC(=O)[C@H](CCN)NC1=O  MIC (broth microdilution; ATCC 10145, cation-adjusted Mueller-Hinton broth; 18 to 20 h, 37 °C, 0.002% polysorbate 80): 16 µg/mL
COc1c(NC(=O)c2ccc(NC(=O)c3ccc(NC(=O)[C@H](CC#N)NC(=O)c4ccc(NC(=O)/C(C)=C/c5ccc(O)cc5)cc4)cc3)c(OC)c2O)ccc(C(=O)O)c1O  MIC (PA14 ΔmexAB): 0.1 µg/mL
Cc1cc(O)c(=O)c(O)cc1C(=O)C1CC1  MIC (broth microdilution; ATCC 27853, CAMHB; 16 to 24 h, ≥80% growth inhibition): > 71.4 µM
COc1c(NC(=O)c2ccc(NC(=O)c3ccc(NC(=O)[C@H](CC#N)NC(=O)c4ccc(NC(=O)/C(C)=C/c5ccc(O)cc5)cc4)cc3)c(OC)c2O)ccc(C(=O)O)c1O  MIC (broth microdilution; ciprofloxacin-resistant): 2 µg/mL
CC1(C)[C@H](NC(=O)/C(=N\OCCN)c2nsc(N)n2)C(=O)N1OS(=O)(=O)O  MIC (agar dilution; PAO1): > 64 µg/mL
COc1cc(C(=O)O)ccc1NC(=O)c1ccc(NC(=O)c2ccc(NC(=O)[C@H](Cc3c[nH]nn3)NC(=O)c3ccc(NC(=O)/C(C)=C/c4ccc(O)cc4)cc3)cc2)cc1  MIC (broth microdilution; ciprofloxacin-resistant): 32 µg/mL
O=[N+]([O-])c1cc(Cl)c2cccnc2c1O  MIC (microbial growth, broth dilution; ATCC27853): 16 µg/mL
NC[C@H]1O[C@H](O[C@H]2[C@H](O)[C@@H](O[C@H]3O[C@H](CO)[C@@H](O)[C@H](N)[C@H]3O)[C@H](N)C[C@@H]2N)[C@H](N)C[C@@H]1O  MIC (microbial growth, broth dilution; PAO1): 0.25 µg/mL
COc1ccc2ccc(O)c(/C=N/[C@H]3CCCC[C@H]3/N=C/c3ccc(F)cc3O)c2c1  MIC (microbial growth, broth dilution): > 40 µM
CCCCCCCCCCn1cc[n+](CCCCCCCCCCOc2cc(OCCCCCCCCCC[n+]3ccn(CCCCCCCCCC)c3)cc(OCCCCCCCCCC[n+]3ccn(CCCCCCCCCC)c3)c2)c1.[Br-].[Br-].[Br-]  MIC (PAO1): 125 µM
C=CCO/N=C(\C(=O)N[C@@H]1C(=O)N(S(=O)(=O)O)[C@H]1C)c1csc(N)n1  MIC (microbial growth, agar dilution; PAO1): 64 µg/mL
CC(C)C[C@@H]1NC(=O)[C@@H](CC(C)C)NC(=O)[C@H](CCN)NC(=O)[C@@H](NC(=O)[C@H](CCN)NC(=O)[C@@H](N)[C@@H](C)O)CCNC(=O)[C@H]([C@@H](C)O)NC(=O)[C@H](CCN)NC(=O)[C@H](CCN)NC1=O  MIC (broth microdilution; ATCC 25922, cation-adjusted Mueller-Hinton broth): > 138 µM
CC[C@H]1OC(=O)[C@H](C)[C@@H](OC(=O)Cc2ccc3c(c2)OCO3)[C@H](C)[C@@H](O[C@@H]2O[C@H](C)C[C@H](N(C)C)[C@H]2O)[C@](C)(OC)C[C@@H](C)C(=O)[C@H](C)[C@@H](O)[C@]1(C)O  MIC (DSM 50071; compound alone): > 64 µM
C#CCNC(=O)C(C)(C)O/N=C(\C(=O)N[C@@H]1C(=O)N(S(=O)(=O)O)[C@H]1C)c1csc(N)n1  MIC (microbial growth, agar dilution; ATCC27): 64 µg/mL
CC[C@H]1OC(=O)[C@H](C)[C@@H](OC(=O)c2ccc(N)cc2)[C@H](C)[C@@H](O[C@@H]2O[C@H](C)C[C@H](N(C)C)[C@H]2O)[C@](C)(OC)C[C@@H](C)C(=O)[C@H](C)[C@@H](O)[C@]1(C)O  MIC (PAO397, five efflux pumps deleted): > 32 µg/mL
CCCC(=O)Oc1c(C)c(OC)c2c(/C=C/c3ccccc3)c(CC)c(=O)oc2c1C  MIC (microbial growth, broth dilution; ATCC27853): 5000 µg/mL
C/C(=C\c1ccc(O)cc1)C(=O)Nc1ccc(C(=O)N[C@@H](Cc2c[nH]nn2)C(=O)Nc2ccc(C(=O)Nc3ccc(C(=O)Nc4ccc(C(=O)O)cc4)c(O)c3)cc2)cc1  MIC (broth microdilution; ciprofloxacin-sensitive): 32 µg/mL
CC[C@H]1OC(=O)[C@H](C)[C@@H](OC(=O)Cc2ccc(C(F)(F)F)cc2)[C@H](C)[C@@H](O[C@@H]2O[C@H](C)C[C@H](N(C)C)[C@H]2O)[C@](C)(OC)C[C@@H](C)C(=O)[C@H](C)[C@@H](O)[C@]1(C)O  MIC (microbial growth; ATCC27853): > 32 µg/mL
CCCCCC[N+](C)(C)CCCCCCCCOc1cc(OCCCCCCCC[N+](C)(C)CCCCCC)cc(OCCCCCCCC[N+](C)(C)CCCCCC)c1.[Br-].[Br-].[Br-]  MIC (PAO1): 2 µM
COc1ccc(/C=N/[C@@H]2CCCC[C@@H]2/N=C/c2c(O)ccc3ccc(OC)cc23)c(O)c1  MIC (microbial growth, broth dilution): > 40 µM
